Experimental data collected from several papers.
“And” joins repeats or separate records; there may be more than shown. Numbers after ± are the reported error.

Under “abdominal pain incidence”, CNCc1ccc(-c2[nH]c3cc(F)cc4c3c2CCNC4=O)cc1 is recorded as 3.8% (patients; oral, 600 mg twice daily, grade 1).
O=C(COc1ccc(Cl)cc1)NC12CC(c3nnc([C@H]4C[C@@H](OC(F)(F)F)C4)o3)(C1)C2 — result for “participants with procedural pain”: 14.3% (human both sexes; oral, 200 mg once daily, 14 days).
C[Si]1(C)O[Si](C)(C)O[Si](C)(C)O[Si](C)(C)O[Si](C)(C)O1 gave a log KAW of 3.16 (regression; 25 °C).
O=C(O)CCc1ccc(O)c(O[C@@H]2O[C@H](C(=O)O)[C@@H](O)[C@H](O)[C@H]2O)c1 gave a plasma concentration of 226 nM (human plasma; median).
The cell viability of COc1cc2c(c(OC)c1OC)C(=O)c1c(cc(C)c(O)c1OC)C2=O is reported as 52.4 ± 4.92% (HepaRG co-cultured with HK-2; MTT; 133.33 µM, 24 h; reference: untreated control).
C[C@@H](N)C1CCN(S(=O)(=O)c2cccc3cnccc23)CC1: “systolic blood pressure reduction” -16.5 mmHg (healthy volunteers; 250 mg, 2 h, standing; reference: baseline).
The Tmax of Cc1cccc(CNC(=O)c2cn(CCNC(=O)c3ccccc3S)c3cc4c(cc3c2=O)OC(F)(F)O4)n1 is reported as 9.67 ± 7.22 h (Sprague-Dawley rat, male, plasma; intramuscular, 30 mg/kg of parent drug).
CCN(CC)CCCC(C)Nc1ccnc2cc(Cl)ccc12 (stereo not drawn) gave a confluence of 0.88 ± 0.12 (COS-7; 50 µM, 24 h, 0.1% DMSO, unit not given; reference: vehicle control).
For CCn1cc(C(=O)O)c(=O)c2cc(F)c(N3CCNCC3)cc21, the amount permeated was 1.64 nmol (starch gel membrane permeability; Gram-negative envelope surrogate; 200 µM, 20 min, pH 7.4).
Under “subjects with elevated uric acid”, O=C(O)CCC(=O)O.[2H]C([2H])([2H])Oc1cc(C)c2[nH]ccc2c1CN1CC[C@@H](C2CC2)C[C@H]1c1ccc(C(=O)O)cc1 is recorded as 0% (healthy Chinese subjects; oral, 400 mg, single ascending dose).
The confluence of O=C(O)CCc1nc(-c2ccccc2)c(-c2ccccc2)o1 is reported as 0.98 ± 0.02 (COS-7; 50 µM, 24 h, 0.1% DMSO, unit not given; reference: vehicle control).
Oc1ccc(/C=C/c2cc(O)cc(O)c2)cc1 has an ALT level of 119 IU/L and 126 IU/L and 156 IU/L (rat, azoxymethane-injected, blood; in vivo, 100 mg/kg, at sacrifice).
C=CCn1c(=O)c2cnc(Nc3ccc(N4CCN(C)CC4)cc3)nc2n1-c1ccc2c(n1)[C@@](O)(CC)CC2 has an oral bioavailability of 142% (dog).
For CCc1cc(C(=O)NC)c2nccc(N3CCc4c(cc(Cn5ccnc5)cc4-c4cn(C)nc4C(F)(F)F)C3=O)c2c1, “change in clinical chemistry or haematology parameter” read -18.8% (refers to: DBIL; Sprague Dawley rat; oral, 100 mg/kg once daily, 7 days; reference: vehicle).
The MRT(0-inf) of Cc1cn([C@H]2C[C@H](N=[N+]=[N-])[C@@H](CO)O2)c(=O)[nH]c1=O is reported as 14.9 ± 32.4 h (human, both sexes, PBMCs; oral, 600 mg, single dose).
C[C@@H](c1nc(-c2ccc(C#N)cc2)cs1)[C@](O)(Cn1cncn1)c1cc(F)ccc1F: “subjects with adverse event” 8.7% (flatulence; human; oral, dose not given, with: ethinyl estradiol/norethindrone).
CC1CCNc2c(C(=O)NC/C=C/S(C)(=O)=O)cccc21 (stereo not drawn) gave a serum ALT of 30 U/L and 40 U/L (uninfected mouse, serum; 300 mg/kg).
For Cc1c(-c2ccc(N3CCc4cccc(C(=O)Nc5nc6ccccc6s5)c4C3)nc2C(=O)O)cnn1CC12CC3(C)CC(C)(C1)CC(OCCNCC[C@H](O)CO)(C3)C2, “mean arterial pressure change” read 1 mmHg (beagle dog, anaesthetised; intravenous infusion, 0.1 mg/kg/min, 15 min; reference: baseline).
With CCC(C)n1ncn(-c2ccc(N3CCN(c4ccc(OCC5COC(Cn6cncn6)(c6ccc(Cl)cc6Cl)O5)cc4)CC3)cc2)c1=O (stereo not drawn) the adverse events was 0% (healthy human volunteers; oral, 200 mg, event Flatulence, continued dosing).
COc1c(O)c(C)cc2c1C(=O)c1c(cc(O)c(O)c1O)C2=O has a cell viability of 101 ± 9.23% (HepaRG co-cultured with HK-2; MTT; 16.67 µM, 48 h; reference: untreated control).
CCOC(=O)[C@@]12C[C@@H]1[C@@H](n1ccc3c(NC)nc(C#Cc4ccc(Cl)s4)nc31)[C@H](O)[C@@H]2O — result for “AUC extrapolated share”: 11% (Sprague-Dawley rat, male, plasma; intravenous, 0.5 mg/kg).
C[C@@H]1CCO[C@H]2Cn3cc(C(=O)NCc4ccc(F)cc4F)c(=O)c(O)c3C(=O)N12: “trough concentration (C24)” 303 ng/mL (human paediatric patients, weight sample B to under sample C kg, plasma; oral, 20 mg film-coated tablet, 24 h, steady state, geometric mean, population PK post-hoc, N 2).
The plasma concentration of COc1ccc([C@@H]2CC(=O)c3c(O)cc(O)cc3O2)cc1O is reported as 187 nM (human plasma; mean, both sexes).
With COc1cccc(-c2n[nH]c(SCc3ccccn3)n2)c1OC the AUC(0-last) ratio was 1.31 (Sprague-Dawley rat, plasma; oral, 100 mg/kg; reference: female over male).

Excerpt of the above:
Oc1ccc(/C=C/c2cc(O)cc(O)c2)cc1 has an ALT level of 119 IU/L and 126 IU/L and 156 IU/L (rat, azoxymethane-injected, blood; in vivo, 100 mg/kg, at sacrifice).
For CCn1cc(C(=O)O)c(=O)c2cc(F)c(N3CCNCC3)cc21, the amount permeated was 1.64 nmol (starch gel membrane permeability; Gram-negative envelope surrogate; 200 µM, 20 min, pH 7.4).
